Assay results collected from several papers.
Each numbered part is a random draw from the data of one study; scales do not carry over between parts.

Set 1
Target: RNA binding protein fox-1 homolog 2, RRM domain, GST-SBP tag (RBFOX2, Homo sapiens, UniProt O43251-10, residues 100-194)
Method: RNA Bind-n-Seq
Molecule type: RNA
Medium: in vitro
Tested at: 365 nM
Setting: natural RNA segment, single round, ends assumed
Baseline: no-protein control
Direction: higher = stronger binding
All sequences stand within: GGGAGUUCUACAGUCCGACGAUC … UGGAAUUCUCGGGUGCCAA
Residues (chain): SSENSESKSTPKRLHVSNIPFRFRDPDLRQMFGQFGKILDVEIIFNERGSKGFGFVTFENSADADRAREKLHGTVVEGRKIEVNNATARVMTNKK
| Sequence | RBNS enrichment (R) |
| --- | --- |
| CCUUUUCAUAGCUGGAUCUUCCGUGAAGUGUUCCUUUUGGUGGUUUGGAUUUUUUUUUUUUUUAAAUAAAGACCUUAUCUGCCGAAUUUAAUUGUAGAGAUUUGAACCCG | 0.333 |
| GAUAGGGAAGGGAUAAUCUGAGAAUUUUUAAAAGAUGAUUUAAUGAGAAGAAGCACAAUUUUGAUUUUGAUGAGUCACUUUCUGUAAACAAUCUUGGUCUAUCUUUACCC | 0.561 |
| UACACAUAACUGACUGGAAAGAAUUAAUUUCUUUCCCCCAGCUUAAUGCAUGUUGAGGAUAUUGAGCUAUUUUUCAUCUUAAAGGUAUUAGGCACUUUUGUUGGAGCCUG | 0.657 |
| UGGGCUUGGCAGUAGGAUAGACUUGAUGCCUGCGUUUUGGACCUUAGACCUGCCCGCCUUCGUUCCUACAGUUAGAUCAUCUUGAGAGAUACUUAAAAGUAUCUCCUCCU | 1.01 |
| CAUGUUGUAGAGCCUUUUCUUAGGUGGAGUAUUUCUGAAGGCUUUAAAAUCAUUACAAUAAAAACCCAAAUUGGAACUAUCUCCUCCCUUUACCCCUUUCCCUUAAUUCC | 0.804 |
| UGUGUGACAUUUAUAGGGAAUGUUGGCUCUGAACAAACUUUUGAAAACUUGGUUGACAAAAUUUUGGAUCAACUGAAAAAAGCAUGACUUUUGAAAUCUCUGAAUGCCUU | 5.6 |
| AACUGCAGAGGAGCUGCCCUCUGUCAGCAGCUCUCCAGCAUGGUCCUCUGACACUCCUCAGAUGAACUGUUCUCAUCGGAAGCUUGCUGUCUUUUUACAAGAUGAGCUUU | 0.265 |
| AAUGUGUGAAAAAGAUGCCAAUUAUUGUUACACAUCAAGCAAUCAAUAAAGAAAACUUCCGUAGUUAUUUAUUGAGUGCAACUGUCCUGUGCUUUACUGAGCCUGAGCUA | 0.249 |
| GUUUUGUUGUUGUUUUGAGACAGGGUUUCUUUGUGUAGCCCUGACUGUUCUGGAACUUGCUCUGAAGACCAGGCUGACCUCGAACUCAGAGAUCUGCCUGCCUCUGCUUC | 0.316 |
| GAAGUUCUGCUCCUUAGCCAUCCUUUCCUGUAAUUUAUGUCUCUCCCUGAGGUGAGGUUCAGGUUUAUGUCCCUGUCUGUGGCAUAGAUACAUCUCAGUGACCCAGGGUG | 0.272 |
| UGCUGCUUCGAGGCCCUGAAGCUGGGGCUGUGAGACCCUUCCCUACAGUGUCCUCUUCCUCUGCUGGCUGGGAGCAGCGGGAGGCAGGGCAGAAACGUUGGGCUCCAUUC | 0.718 |
| UUCCAGAAUGCAUUGCACAUCUUUUUAUGAAAUCUAGACUAUGAAAAGGUGAUAAACAUGAAGUAACUGACCCAGAGUUGGUUUAUCUUUGAGUAAACCUUUUUAGUUUU | 1.99 |

Set 2
Target: Interferon regulatory factor 7, full length, phosphomimetic (IRF7, Homo sapiens, UniProt Q92985, residues 1-503, S101K/S471D/S472D/S475D/S476D/S477D/S483D/S484D/S487D)
Method: protein-binding microarray
Molecule type: double-stranded DNA, one strand shown
Medium: in vitro
Tested at: 250 nM
Setting: 60-bp whole probe
Together with: salmon DNA 0.4 mg/ml
Baseline: random background probes
Direction: higher = stronger binding
All sequences stand within: GCCTAGCAC … GTCTTGATTCGCTTGACGCTGCTG
Residues (chain): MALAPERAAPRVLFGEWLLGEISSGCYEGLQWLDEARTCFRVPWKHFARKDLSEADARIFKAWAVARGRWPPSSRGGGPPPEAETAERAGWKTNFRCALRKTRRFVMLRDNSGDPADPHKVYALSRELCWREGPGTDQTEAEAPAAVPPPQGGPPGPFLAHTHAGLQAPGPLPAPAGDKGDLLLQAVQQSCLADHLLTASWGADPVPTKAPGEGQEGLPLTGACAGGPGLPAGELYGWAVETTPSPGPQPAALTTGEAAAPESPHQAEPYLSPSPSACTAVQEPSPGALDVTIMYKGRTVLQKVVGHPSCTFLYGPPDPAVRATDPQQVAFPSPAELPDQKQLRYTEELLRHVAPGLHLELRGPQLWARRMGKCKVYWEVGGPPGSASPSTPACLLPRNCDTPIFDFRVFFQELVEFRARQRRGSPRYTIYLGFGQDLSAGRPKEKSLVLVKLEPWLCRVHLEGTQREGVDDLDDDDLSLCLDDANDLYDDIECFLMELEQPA
| Sequence | log fluorescence |
| --- | --- |
| GACGGACTGGGAATGGGGACGTGCTAG | -0.321 z-score |
| TCTATAATGGATATATATCAGTGCTAG | 0.00892 z-score |
| TACTGTCTGTTTCCTCTTTCTGTGCTA | 1.22 z-score |
| TTAGGACTGCTTACCCTTTAGTGCTAG | -0.137 z-score |
| GACGATTTCGGGTTTCGATACGTGCTA | 6.59 z-score |
| TTAGATCTCAGGCTGGATTAGTGCTAG | -0.452 z-score |
| TCAGTATTATTTATTGTACTGTGCTAG | 0.155 z-score |
| GACGAACTGCGACTGGAGACGTGCTAG | -0.554 z-score |
| TCAGGTATCGACTTTCGGTTAGTGCTA | 3.2 z-score |
| TTAGAACTGCTTCTCCTTTAGTGCTAG | 0.391 z-score |
| GACTGTATCCTTCTCCTGACGTGCTAG | 0.459 z-score |
| TTAGGTTTCGCGTATCGGTTAGTGCTA | 3.64 z-score |
| GAACCTTGGGCTCTAGGTTCGTGCTAG | 1.33 z-score |
| GGAAAAATGATGTTTTAGGTCGTGCTA | -0.478 z-score |
| TTAGGTCTCCTTATCCTTAAGTGCTAG | 0.764 z-score |
| TTAGGCCTCCTTTTCCTTTAGTGCTAG | 1.37 z-score |
| TCAGCTTTCTTTACCACACTGTGCTAG | 0.374 z-score |
| GACGGTTTCCTTTCCTTGACGTGCTAG | 4.49 z-score |
| TAAGAACTGAGTATCGATTAGTGCTAG | 0.971 z-score |
| GACAGTATCGGACTGGGGACGTGCTAG | -0.294 z-score |
| GACTGACTGGACTATCGGGACGTGCTA | -0.196 z-score |

Set 3
Target: Ras GTPase-activating protein-binding protein 1, full length (G3BP1, Homo sapiens, UniProt Q13283)
Sequence of UniProt Q13283 (whole entry, looked up): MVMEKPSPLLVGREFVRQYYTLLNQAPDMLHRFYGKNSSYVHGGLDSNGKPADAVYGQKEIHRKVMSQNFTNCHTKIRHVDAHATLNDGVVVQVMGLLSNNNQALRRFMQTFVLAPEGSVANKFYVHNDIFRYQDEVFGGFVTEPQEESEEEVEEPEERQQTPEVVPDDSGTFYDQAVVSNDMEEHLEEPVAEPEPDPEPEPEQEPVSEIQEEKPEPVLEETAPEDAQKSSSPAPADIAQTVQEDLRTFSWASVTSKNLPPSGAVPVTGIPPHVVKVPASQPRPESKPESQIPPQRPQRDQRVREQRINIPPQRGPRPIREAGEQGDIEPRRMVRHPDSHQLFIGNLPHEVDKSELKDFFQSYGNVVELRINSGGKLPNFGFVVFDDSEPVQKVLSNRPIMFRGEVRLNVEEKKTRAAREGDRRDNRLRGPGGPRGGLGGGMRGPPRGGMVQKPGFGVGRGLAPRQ
Method: RNA Bind-n-Seq
Molecule type: RNA
Medium: in vitro
Tested at: 200 nM
Setting: whole 134-nt RNA, ends assumed
Together with: 150 mM KCl
Baseline: input library
Direction: higher = stronger binding
All sequences stand within: GGGAGUUCUACAGUCCGACGAUC … UGGAAUUCUCGGGUGUCAAGG
| Sequence | log2 enrichment |
| --- | --- |
| UCAAGUCCUGUGCUACACAUCGUAUGUACCGAAUCGGAAAGGAAAGGAAAGGGGAAAGUAUUAUGUUACGCCGUUCGGAUCUGCACUUCC | -0.803 |
| CACAGACAACACGCACCCGCACAGACACAGAGGGAAGGGGUUGGGAUGGGGACAGGGUGCACAGCAGGGCGGGGUAGGACCCCAGCCCCU | 1.92 |
| CUCAAGUCCUGUGCUACACAUCGUAUGUACCGAAUCGGGCCGGGCCGGCCGGGAAAGUAUUAUGUUACGCCGUUCGGAUCUGCACUUCCA | -0.127 |
| AAGUCCUGUGCUACACAUCGUAUGUACCGAAUCGGAGGUUUUUUUGGAAAAAAAGGAAAGUAUUAUGUUACGCCGUUCGGAUCUGCACUU | -1.3 |
| CCUGUGCUACACAUCGUAUGUACCGAAUCGGCCCCCCCGGGCCCCCCCGGCCCCCCCGGGGAAAGUAUUAUGUUACGCCGUUCGGAUCUG | -0.206 |
| ACCAUGCAGGUGGGCAUCUUUGGGAAGUGGGGCAAGGGGGGGAUAGGGAGGGGGGUAACACUUGGGGAACAGGUGGUCCCAGGUCGUUUC | 1.26 |
| ACCAUGCAGGUGGGCAUCUUUGGGAAGUGGGGCAAGGGGGGGAUAGGGAGGGGGGUAACACUUUGCGAACAGGUGGUCCCAGGUCGUUUC | 1.44 |
| UAGUUUAUGCCAACGUGACUUCAUUCAUACAGAUGAACCAAGGAUCGGGAUAGCAGUAUAAAAUUAGAAUCAAGACAGCUGACUGCUCAG | -2.21 |
| UGCUGGAGUGGCAGAAGACUUUUGAGGAGAAGCUCACGCCGUUGCUGAGUGUGCGGGAGUCACUCUCAGAGGAAGAGGCCCAGAAGAUGG | -1.29 |
| UGGGAGGUGGAUUUUGUUUAUUUUUUUAGCUCAUUUCGAGGGGUGGGAAUUUUUUUUUAAUAUGUGUCAUGAAUAAAGUUGUUUUUGAAA | 0.0754 |

Set 4
Target: Histone acetyltransferase KAT6A, both winged helices, GST fusion (KAT6A, Homo sapiens, UniProt Q92794, residues 1-181)
Method: protein binding microarray
Molecule type: double-stranded DNA, one strand shown
Medium: in vitro
Tested at: not given
Setting: 8-mer, flanks averaged, mean of 2 arrays, mostly near background
Baseline: not given
Direction: higher = stronger binding
Residues (chain): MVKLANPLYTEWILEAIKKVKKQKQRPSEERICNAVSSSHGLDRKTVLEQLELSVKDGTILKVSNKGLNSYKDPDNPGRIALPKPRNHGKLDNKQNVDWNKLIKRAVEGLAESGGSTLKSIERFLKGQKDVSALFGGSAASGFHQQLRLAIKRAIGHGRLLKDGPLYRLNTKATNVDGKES
| Sequence | E-score |
| --- | --- |
| TACTGAGA | -0.0846 |
| TGCTAGAA | -0.0104 |
| ACGACCAA | -0.135 |
| ACCTGACC | -0.0525 |
| CCTTCACC | 0.0818 |
| TACCCAGA | -0.165 |
| CGATAACG | 0.0449 |
| AGTTACAT | -0.166 |
| GCAGTGTA | 0.0248 |
| AGCGGAGG | 0.152 |
| GCCTGAAA | 0.0195 |
| ACTGAAAA | -0.0932 |
| CGGGGCCA | 0.0523 |
| ACGTATCA | -0.0524 |
| CAAAAGAG | -0.125 |
| TGGGCCCA | -0.132 |
| AACTTTTC | -0.0582 |
| ATGTCCGA | 0.0903 |
| CGCAAAAA | 0.197 |
| TAAGGCAA | -0.153 |
